Measured values from different studies.
Parts stem from different laboratories: compare values within a part only. Changes are numbered by the printed parent chain.
Sequence of UniProt Q94JM3 (whole entry, looked up): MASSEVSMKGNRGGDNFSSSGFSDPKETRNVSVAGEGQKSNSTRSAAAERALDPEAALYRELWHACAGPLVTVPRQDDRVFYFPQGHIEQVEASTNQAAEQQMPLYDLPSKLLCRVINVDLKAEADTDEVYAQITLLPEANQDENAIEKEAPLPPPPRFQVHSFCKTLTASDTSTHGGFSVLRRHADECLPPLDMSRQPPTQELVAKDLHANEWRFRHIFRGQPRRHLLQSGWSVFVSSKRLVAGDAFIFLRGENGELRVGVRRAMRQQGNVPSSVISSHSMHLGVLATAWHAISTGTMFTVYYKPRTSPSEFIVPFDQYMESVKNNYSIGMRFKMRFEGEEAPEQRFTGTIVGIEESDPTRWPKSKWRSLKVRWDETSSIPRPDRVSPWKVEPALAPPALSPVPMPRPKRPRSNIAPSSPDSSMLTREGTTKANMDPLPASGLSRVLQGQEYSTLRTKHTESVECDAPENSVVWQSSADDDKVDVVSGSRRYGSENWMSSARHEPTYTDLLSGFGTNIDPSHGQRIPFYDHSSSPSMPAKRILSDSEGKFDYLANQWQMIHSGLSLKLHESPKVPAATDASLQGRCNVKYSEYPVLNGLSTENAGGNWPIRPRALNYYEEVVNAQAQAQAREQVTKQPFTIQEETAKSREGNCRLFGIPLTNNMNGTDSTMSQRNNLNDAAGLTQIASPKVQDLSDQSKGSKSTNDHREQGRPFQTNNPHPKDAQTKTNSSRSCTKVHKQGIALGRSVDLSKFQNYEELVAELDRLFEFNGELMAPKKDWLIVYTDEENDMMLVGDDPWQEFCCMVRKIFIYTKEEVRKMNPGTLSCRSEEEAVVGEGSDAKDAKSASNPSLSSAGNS
Sequence of UniProt O24409 (whole entry, looked up): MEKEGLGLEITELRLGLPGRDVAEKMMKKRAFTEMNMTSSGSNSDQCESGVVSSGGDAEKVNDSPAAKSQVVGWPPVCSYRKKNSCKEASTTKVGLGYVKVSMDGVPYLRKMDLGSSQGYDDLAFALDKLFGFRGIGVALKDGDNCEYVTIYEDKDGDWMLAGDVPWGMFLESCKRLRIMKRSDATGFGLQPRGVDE
Sequence of UniProt O24407 (whole entry, looked up): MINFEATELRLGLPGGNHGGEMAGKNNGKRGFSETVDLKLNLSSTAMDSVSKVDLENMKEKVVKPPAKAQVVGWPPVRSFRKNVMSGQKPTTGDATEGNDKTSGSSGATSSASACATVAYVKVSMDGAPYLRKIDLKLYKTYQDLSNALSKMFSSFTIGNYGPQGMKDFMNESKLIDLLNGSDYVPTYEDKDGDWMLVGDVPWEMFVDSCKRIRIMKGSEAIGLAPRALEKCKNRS
Sequence of UniProt Q9C966 (whole entry, looked up): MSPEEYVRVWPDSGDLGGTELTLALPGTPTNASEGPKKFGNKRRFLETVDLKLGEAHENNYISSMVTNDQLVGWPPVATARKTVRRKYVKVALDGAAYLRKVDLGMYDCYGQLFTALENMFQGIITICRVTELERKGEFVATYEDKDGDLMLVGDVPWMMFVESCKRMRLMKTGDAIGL
Sequence of UniProt Q38826 (whole entry, looked up): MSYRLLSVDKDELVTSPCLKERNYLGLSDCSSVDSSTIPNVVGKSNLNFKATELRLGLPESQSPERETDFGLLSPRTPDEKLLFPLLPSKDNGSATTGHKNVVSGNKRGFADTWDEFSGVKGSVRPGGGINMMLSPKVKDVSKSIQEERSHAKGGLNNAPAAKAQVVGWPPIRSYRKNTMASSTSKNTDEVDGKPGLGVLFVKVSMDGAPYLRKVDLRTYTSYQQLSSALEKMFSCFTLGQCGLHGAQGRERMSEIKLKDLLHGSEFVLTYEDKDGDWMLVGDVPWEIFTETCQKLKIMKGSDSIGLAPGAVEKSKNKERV
Sequence of UniProt P93022 (whole entry, looked up): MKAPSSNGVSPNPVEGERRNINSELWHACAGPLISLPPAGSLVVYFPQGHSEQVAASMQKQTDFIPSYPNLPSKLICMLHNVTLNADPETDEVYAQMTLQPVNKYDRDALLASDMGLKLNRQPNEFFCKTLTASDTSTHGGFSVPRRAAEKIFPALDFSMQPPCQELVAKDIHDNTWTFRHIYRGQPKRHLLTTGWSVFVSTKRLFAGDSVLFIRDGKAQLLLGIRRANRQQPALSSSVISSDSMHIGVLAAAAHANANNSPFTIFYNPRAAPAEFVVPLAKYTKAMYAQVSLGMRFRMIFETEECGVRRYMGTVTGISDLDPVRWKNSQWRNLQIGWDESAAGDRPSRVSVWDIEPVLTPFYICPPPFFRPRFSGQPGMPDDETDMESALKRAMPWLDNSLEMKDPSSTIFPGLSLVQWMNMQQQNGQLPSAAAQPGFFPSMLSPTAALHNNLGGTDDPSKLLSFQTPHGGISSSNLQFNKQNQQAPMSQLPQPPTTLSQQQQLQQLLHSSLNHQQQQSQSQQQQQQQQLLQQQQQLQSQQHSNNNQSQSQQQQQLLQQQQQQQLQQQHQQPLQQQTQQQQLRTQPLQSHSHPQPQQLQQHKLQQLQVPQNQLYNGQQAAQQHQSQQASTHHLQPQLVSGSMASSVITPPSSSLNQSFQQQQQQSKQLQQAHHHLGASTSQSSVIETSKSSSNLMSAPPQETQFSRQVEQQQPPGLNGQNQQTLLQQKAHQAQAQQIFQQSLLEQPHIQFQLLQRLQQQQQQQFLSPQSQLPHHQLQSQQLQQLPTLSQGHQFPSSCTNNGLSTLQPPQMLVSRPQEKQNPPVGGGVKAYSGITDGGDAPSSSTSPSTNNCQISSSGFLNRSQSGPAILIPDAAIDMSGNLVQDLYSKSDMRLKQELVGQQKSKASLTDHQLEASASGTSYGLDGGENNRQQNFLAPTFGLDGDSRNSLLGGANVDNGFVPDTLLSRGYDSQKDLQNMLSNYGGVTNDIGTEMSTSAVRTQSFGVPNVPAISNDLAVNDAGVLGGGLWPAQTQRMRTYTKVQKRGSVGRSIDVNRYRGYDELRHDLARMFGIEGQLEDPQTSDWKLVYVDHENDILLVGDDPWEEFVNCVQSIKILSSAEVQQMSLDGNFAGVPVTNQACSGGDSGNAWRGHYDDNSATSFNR

Study 1
Sequence: B1 (IAA6)
Technique: two-hybrid
Relative to: out of 4 tests
Direction: higher = firmer interaction
B1: IAA6 (Arabidopsis thaliana, UniProt Q38824); chain MAKEGLALEITELRLGLPGDNYSEISVCGSSKKKKRVLSDMMTSSALDTENENSVVSSVEDESLPVVKSQAVGWPPVCSYRRKKNNEEASKAIGYVKVSMDGVPYMRKIDLGSSNSYINLVTVLENLFGCLGIGVAKEGKKCEYIIIYEDKDRDWMLVGDVPWQMFKESCKRLRIVKRSDATGFGLQQD
partner | positive tests
ARF2 727-859 (Arabidopsis thaliana, UniProt Q94JM3) | 1
IAA16 (Arabidopsis thaliana, UniProt O24407) | 1
IAA8 (Arabidopsis thaliana, UniProt Q38826) | 1
ARF7 1030-1164 (Arabidopsis thaliana, UniProt P93022) | 0
IAA15 (Arabidopsis thaliana, UniProt Q9C966) | 0
IAA19 (Arabidopsis thaliana, UniProt O24409) | 0

Study 2
Target: CCNB1, cyclin fold, Cln2 fusion (human)
Technique: yeast growth competition, sequencing
Sample: yeast
Setting: strong parent motif
Relative to: not given
Direction: higher = stronger binding
Parent: BRCA2 docking peptide (human); PSIKRNLLNEFDR; partner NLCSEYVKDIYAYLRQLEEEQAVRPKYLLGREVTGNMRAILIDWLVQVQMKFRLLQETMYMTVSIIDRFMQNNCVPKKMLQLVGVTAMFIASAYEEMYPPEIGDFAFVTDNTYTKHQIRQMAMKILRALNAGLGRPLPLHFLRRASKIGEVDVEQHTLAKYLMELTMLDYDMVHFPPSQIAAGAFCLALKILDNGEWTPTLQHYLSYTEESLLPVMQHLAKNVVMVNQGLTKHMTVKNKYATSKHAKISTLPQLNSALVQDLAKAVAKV
Substitution | normalised enrichment score
PSIKRNLLNEFWR [D12W] | 1.89
FSIKRNLLNEFDR [P1F] | 1.6
PSIKRMLLNEFDR [N6M] | 0.687
PSQKRNLLNEFDR [I3Q] | 0.852
PSIKRNLLNEFDF [R13F] | 2.81
ESIKRNLLNEFDR [P1E] | 3.53
PLIKRNLLNEFDR [S2L] | 2.14
PSIKRNLLPEFDR [N9P] | 3.21
MSIKRNLLNEFDR [P1M] | 2
PSIKRNLLNETDR [F11T] | 0.83
PQIKRNLLNEFDR [S2Q] | 2.38
PSIQRNLLNEFDR [K4Q] | 1.73
PSIKRNLLNEFSR [D12S] | 1.8
PSMKRNLLNEFDR [I3M] | 0.0279
PSIKRNLLNEFQR [D12Q] | 1.81
PSIKRNLLNEFDA [R13A] | 3.43
PSILRNLLNEFDR [K4L] | -0.0405

Study 3
Target: RING finger protein unkempt homolog, zinc fingers 1-6, GST-SBP tag (UNK, Homo sapiens, UniProt Q9C0B0, residues 30-357)
Sequence of UniProt Q9C0B0 (30-357, looked up): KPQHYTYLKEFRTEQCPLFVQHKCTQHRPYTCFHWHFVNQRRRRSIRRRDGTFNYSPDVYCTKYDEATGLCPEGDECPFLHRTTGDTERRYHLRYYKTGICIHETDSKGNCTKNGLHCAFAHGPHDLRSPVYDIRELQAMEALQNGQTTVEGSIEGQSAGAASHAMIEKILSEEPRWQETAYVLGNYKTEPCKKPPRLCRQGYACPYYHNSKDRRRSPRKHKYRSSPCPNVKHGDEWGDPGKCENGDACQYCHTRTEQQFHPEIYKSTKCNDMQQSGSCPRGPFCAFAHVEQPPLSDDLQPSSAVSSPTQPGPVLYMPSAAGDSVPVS
Technique: RNA Bind-n-Seq
Form: RNA
Sample: in vitro
Tested at: not given
Setting: RNA with constant flanks, human-mouse chimeric sites, ends assumed
Relative to: input RNA pool
Direction: higher = stronger binding
Constant ends, left off below: GGGAGUUCUACAGUCCGACGAUC … CAACAGAGGAUUGAGCAUCA
Oligonucleotide | bound/input enrichment [ratio]
AUAGAUGAAAUUGAUGUGGACCAGGAAGGAAUUGCUGAAAUGAUGCUGGAUGAAAAUGCUAUAGCUCAGGUCCCACGCCCUGGCACAUCUUUGAAGCUCCCUGGCACUAACCAAACAGGA | 0.269
UGUGCCCCACAAGAUCCUACCUGAGUGUUCAGAUGGGUUGACUCCCUCUCCUUGCCUGAACCCCCCCCCACUGCCCCCCCAUCCCCCAGUGUCGGCUGAGAUGUUGCCUCUGCACGGUUC | 2.76
CAACCUCAGAGCCCAGACUUCCUGGAUAUUACCAACCCUAAAGCGGUAUUAGAAAAUGCAUUGAGAAACUUCGCCUGUCUGACGACUGGAGAUGUGAUUGCUAUCAACUACAAUGAGAAG | 0.327
GAUAAGAAAAGCUUGUUGGAGACCCGCUUGCAUGUCACUGGCAGAGACCUGAGGUGUCAAAUAGCUGAAACUUUCGGAUUUCAAGAAAAUUACAUCAAGAUCGUAAUAAAUAAGAAGCAG | 0.378
CUGAGGAUACCACUGAAGAGACCUUAAAAGAAUCAUUUUGACGGCUCGUUCGUGCAAGAAUAGUCACUGAUCGGGAAACUGGUUCUUUCCAAAGGGUUGGUUUUGUAGACUUUAAUAGUG | 0.551
UCAACUGACAACAUCAAAUACCAGCCUAAAGGGGGGCAGGUACAAAUUGUUACCAAGAAGAUAGACUUAAGCCAUGUGACAUCCAAAUGUGGCUCUCUGAAGAACAUCCGCCACAGGCCA | 0.215
GGGGAGAAACCUUACGAGUGUGUGCAGUGUGGGAAAUCCUACAGUCAAAGCUCAAAUCUUUUUAGACAUCAGAGACGACACAAUGCAGAAAAACUUUUGAAUGUUGUGAAGGUUUAAGAA | 0.121
GGCUGCUGGUGACUGUCCUGGAGUGGCUGGAGUUCCCCCGGAACCUGGGCCAGACUAAUUUUAGAAAAUGCCAAGUAGGAAGUUUGUUGAGGGUGAAGUGGUAAGAGGCCGAUGGCCUGG | 6.02

Study 4
Target: Sal-like protein 4, full length isoform B (SALL4, Homo sapiens, UniProt Q9UJQ4-2, residues 1-616)
Technique: universal PBM
Form: double-stranded DNA, one strand shown
Sample: in vitro
Tested at: not given
Setting: 8-mer, flanks averaged, mean of replicates
Direction: higher = stronger binding
Residues (chain): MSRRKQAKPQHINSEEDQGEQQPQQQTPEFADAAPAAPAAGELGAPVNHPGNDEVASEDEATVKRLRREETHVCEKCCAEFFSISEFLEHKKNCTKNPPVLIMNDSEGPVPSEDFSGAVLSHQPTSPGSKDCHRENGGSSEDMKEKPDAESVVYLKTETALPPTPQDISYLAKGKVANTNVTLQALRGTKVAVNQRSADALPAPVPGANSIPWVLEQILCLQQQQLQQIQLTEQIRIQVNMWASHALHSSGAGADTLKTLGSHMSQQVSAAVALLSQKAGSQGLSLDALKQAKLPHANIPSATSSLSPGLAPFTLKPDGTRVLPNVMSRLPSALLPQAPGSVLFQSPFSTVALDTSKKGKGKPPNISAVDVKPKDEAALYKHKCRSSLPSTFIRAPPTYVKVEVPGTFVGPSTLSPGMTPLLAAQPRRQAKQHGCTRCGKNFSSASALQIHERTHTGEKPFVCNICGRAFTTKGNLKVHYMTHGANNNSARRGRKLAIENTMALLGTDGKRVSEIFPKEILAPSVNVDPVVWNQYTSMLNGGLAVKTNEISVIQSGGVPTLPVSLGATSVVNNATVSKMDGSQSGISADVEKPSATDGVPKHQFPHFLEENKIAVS
Oligonucleotide | E-score
GTCCAAAC | -0.174
GTTGAGCA | -0.0493
GAAAGGCA | 0.184
AATAAAAC | 0.302
CGCGCTTC | -0.139
AGTTGCTC | -0.168
CAAAGCGG | -0.175
CTGCTGCA | -0.197
GCATGCAC | 0.0171
AGAACTAT | 0.24
AACCCGTC | -0.0518
GAGAGATA | 0.143
TGACGCAA | -0.0899
ATAAGTGA | 0.279
AAACCACG | -0.0842
GTGATAAC | 0.229
GCGCCATA | 0.0339
ATGGAAAC | 0.156
ACGGCTCT | -0.147
GGATTCAA | 0.0476

Excerpt of the above (study 4):
Oligonucleotide | E-score
GTGATAAC | 0.229
AATAAAAC | 0.302
GAAAGGCA | 0.184
